{"data": "Measured values of several laboratories", "note": "Each numbered part is a random draw from the data of one study; scales do not carry over between parts. Changes are numbered by the printed parent chain.", "chain of UniProt Q01959 (whole entry, looked up)": "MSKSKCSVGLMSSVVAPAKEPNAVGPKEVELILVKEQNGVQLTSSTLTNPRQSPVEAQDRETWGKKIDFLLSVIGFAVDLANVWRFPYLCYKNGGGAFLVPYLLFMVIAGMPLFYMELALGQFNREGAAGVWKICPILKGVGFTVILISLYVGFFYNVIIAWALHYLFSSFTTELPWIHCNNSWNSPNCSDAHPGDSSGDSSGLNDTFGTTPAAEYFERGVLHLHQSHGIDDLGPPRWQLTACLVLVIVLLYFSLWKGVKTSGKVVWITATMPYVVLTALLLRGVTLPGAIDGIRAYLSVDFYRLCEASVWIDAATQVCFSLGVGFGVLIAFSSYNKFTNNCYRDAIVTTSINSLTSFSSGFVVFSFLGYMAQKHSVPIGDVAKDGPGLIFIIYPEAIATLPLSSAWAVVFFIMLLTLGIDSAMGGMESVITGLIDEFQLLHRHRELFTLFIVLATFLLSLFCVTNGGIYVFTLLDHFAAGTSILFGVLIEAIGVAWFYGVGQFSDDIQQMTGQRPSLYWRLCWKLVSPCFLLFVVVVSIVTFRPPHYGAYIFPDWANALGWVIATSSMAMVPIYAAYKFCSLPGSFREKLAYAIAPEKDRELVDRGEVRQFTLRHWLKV"}
{"data": "Series 1", "target": "Myc proto-oncogene protein, bHLH-zipper, MAX partner unstated (MYC, Homo sapiens, UniProt P01106, residues 368-449)", "technique": "protein-binding microarray", "molecule type": "double-stranded DNA, one strand shown", "medium": "in vitro", "concentration": "not given", "setting": "k-mer, scored over probes, only values ≥0.25", "direction": "higher = stronger binding", "chain of UniProt P01106 (368-449, looked up)": "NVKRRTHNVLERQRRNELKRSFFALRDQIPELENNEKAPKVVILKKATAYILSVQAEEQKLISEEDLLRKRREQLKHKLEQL"}
{"Sequence": "CATGCCTA", "E-score": 0.362}
{"Sequence": "CCACACGG", "E-score": 0.289}
{"Sequence": "CACGAGTG", "E-score": 0.379}
{"Sequence": "GTGGGAAC", "E-score": 0.296}
{"Sequence": "CATCACGC", "E-score": 0.289}
{"Sequence": "CCACGCCG", "E-score": 0.431}
{"Sequence": "GCCATGCC", "E-score": 0.406}
{"Sequence": "GCGACCGC", "E-score": 0.275}
{"data": "Series 2", "target": "HLA class I histocompatibility antigen, A alpha chain, allele A*80:01 (Homo sapiens, UniProt P04439)", "effect on": "peptide-MHC binding", "molecule type": "peptide", "concentration": "concentration not given"}
{"Sequence": "ARLSSPIVL", "binding": "inactive"}
{"Sequence": "RWASGVSEI", "binding": "inactive"}
{"Sequence": "DEMVCKWLL", "binding": "inactive"}
{"Sequence": "KPKHLYVSM", "binding": "inactive"}
{"data": "Series 3", "target": "CCNB2, cyclin fold, Cln2 fusion (human)", "technique": "yeast growth competition, sequencing", "medium": "yeast", "setting": "strong parent motif", "reference": "not given", "direction": "higher = stronger binding", "starting sequence": "viral docking peptide; TSVRRALFTGGSD"}
{"Substitution": "S12P", "normalised enrichment score": 0.899}
{"Substitution": "S2K", "normalised enrichment score": 0.647}
{"Substitution": "G11L", "normalised enrichment score": 0.951}
{"Substitution": "L7A", "normalised enrichment score": 0.251}
{"Substitution": "T9V", "normalised enrichment score": 0.724}
{"Substitution": "R4N", "normalised enrichment score": 0.0614}
{"Substitution": "A6R", "normalised enrichment score": 1.09}
{"Substitution": "S12I", "normalised enrichment score": 0.96}
{"Substitution": "F8C", "normalised enrichment score": 0.224}
{"Substitution": "G10H", "normalised enrichment score": 0.568}
{"Substitution": "S2V", "normalised enrichment score": 0.601}
{"Substitution": "A6D", "normalised enrichment score": 0.179}
{"Substitution": "T9R", "normalised enrichment score": 0.806}
{"Substitution": "R5L", "normalised enrichment score": -0.219}
{"Substitution": "T9P", "normalised enrichment score": 0.564}
{"Substitution": "L7Q", "normalised enrichment score": 0.0853}
{"Substitution": "F8L", "normalised enrichment score": 0.521}
{"Substitution": "R4E", "normalised enrichment score": 0.0457}
{"Substitution": "S12E", "normalised enrichment score": 1.22}
{"Substitution": "R4P", "normalised enrichment score": -0.0477}
{"Substitution": "V3H", "normalised enrichment score": -0.0421}
{"Substitution": "V3R", "normalised enrichment score": 0.735}
{"Substitution": "S2Q", "normalised enrichment score": 0.427}
{"Substitution": "S2M", "normalised enrichment score": 0.614}
{"Substitution": "F8G", "normalised enrichment score": -0.108}
{"data": "Series 4", "target": "Sal-like protein 4, full length isoform B (SALL4, Homo sapiens, UniProt Q9UJQ4-2, residues 1-616)", "technique": "universal PBM", "molecule type": "double-stranded DNA, one strand shown", "medium": "in vitro", "concentration": "not given", "setting": "8-mer, flanks averaged, mean of replicates", "direction": "higher = stronger binding", "Residues (chain)": "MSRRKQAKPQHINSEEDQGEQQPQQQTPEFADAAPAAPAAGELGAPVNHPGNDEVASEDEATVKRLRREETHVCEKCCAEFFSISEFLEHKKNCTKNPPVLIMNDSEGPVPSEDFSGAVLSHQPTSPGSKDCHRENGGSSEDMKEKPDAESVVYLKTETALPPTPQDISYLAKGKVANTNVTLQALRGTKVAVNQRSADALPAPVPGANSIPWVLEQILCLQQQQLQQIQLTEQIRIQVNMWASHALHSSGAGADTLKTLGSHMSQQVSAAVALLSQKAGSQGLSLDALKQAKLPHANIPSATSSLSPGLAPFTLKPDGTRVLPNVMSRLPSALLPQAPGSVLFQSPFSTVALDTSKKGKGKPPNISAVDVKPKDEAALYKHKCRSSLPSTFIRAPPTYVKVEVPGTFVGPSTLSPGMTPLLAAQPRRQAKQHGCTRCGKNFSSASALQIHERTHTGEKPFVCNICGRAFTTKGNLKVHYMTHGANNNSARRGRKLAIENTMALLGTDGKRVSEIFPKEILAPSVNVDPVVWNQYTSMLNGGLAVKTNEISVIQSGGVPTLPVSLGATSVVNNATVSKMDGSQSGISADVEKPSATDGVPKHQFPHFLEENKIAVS"}
{"Sequence": "AACGCGGC", "E-score": -0.263}
{"Sequence": "AGAGTACT", "E-score": 0.0599}
{"Sequence": "CAAATACA", "E-score": 0.257}
{"Sequence": "CTGTTGCA", "E-score": -0.0987}
{"Sequence": "CATGGAAC", "E-score": -0.0676}
{"Sequence": "ATATTCGG", "E-score": 0.232}
{"Sequence": "ATAATTGA", "E-score": 0.366}
{"Sequence": "AAATACCT", "E-score": 0.168}
{"data": "Series 5", "target": "Prothrombin, mature alpha-thrombin (F2, Homo sapiens, UniProt P00734)", "technique": "aptamer microarray, sandwich", "molecule type": "DNA with 2'F-ANA", "medium": "in vitro", "concentration": "200 nM", "setting": "whole 15-mer aptamer, many near background", "with": "Cy3 exosite-II aptamer, 400 nM", "direction": "higher = stronger binding", "sequence": "GGTTGGTGTGGTTGG"}
{"Modification": "2'F-ANA at 4 6 7 9 10 11 14 15", "mean fluorescence intensity": "60.5 a.u."}
{"Modification": "2'F-ANA at 1 2 3 4 5 6 8 9 10 11 12 13 14 15", "mean fluorescence intensity": "51.1 a.u."}
{"Modification": "2'F-ANA at 4 5 6 8 9 10 11 12 14", "mean fluorescence intensity": "49.3 a.u."}
{"Modification": "2'F-ANA at 4 5 6 7 8 9 10 12 13", "mean fluorescence intensity": "46.7 a.u."}
{"Modification": "2'F-ANA at 1 3 4 9 10 12", "mean fluorescence intensity": "87.1 a.u."}
{"Modification": "2'F-ANA at 2 5 6 11 13 15", "mean fluorescence intensity": "51.9 a.u."}
{"Modification": "2'F-ANA at 1 4 5 7 10 12 13", "mean fluorescence intensity": "104 a.u."}
{"Modification": "2'F-ANA at 3 4 5 6 8 10 13 14 15", "mean fluorescence intensity": "46.7 a.u."}
{"data": "Other studies, line by line"}
{"SMILES": "CC(=O)N1CCC(c2ccc(C(=O)NC3=NCCN3)cc2C(F)(F)F)CC1", "target": "Sodium-dependent dopamine transporter (SLC6A3, Homo sapiens, UniProt Q01959)", "effect on": "ligand displacement", "concentration": "10 µM", "measurement": "inhibition", "result": "87.3%"}
{"note": "Some of these lines once more (series 2):"}
{"Sequence": "ARLSSPIVL", "binding": "inactive"}
{"Sequence": "RWASGVSEI", "binding": "inactive"}
{"Sequence": "DEMVCKWLL", "binding": "inactive"}
{"Sequence": "KPKHLYVSM", "binding": "inactive"}
